Assay results from different studies.
Each numbered part is a random draw from the data of one study; scales do not carry over between parts.

Study 1 — method: competition protein-binding microarray; molecule type: double-stranded DNA, one strand shown; medium: in vitro; concentration: 2 µM; added: Pho4 competitor, 0.05 µM; reading: higher = stronger binding
Target: Centromere-binding protein 1, full length, His-tagged (CBF1, Saccharomyces cerevisiae, UniProt P17106, residues 1-351)
Sequence of UniProt P17106 (whole entry, looked up): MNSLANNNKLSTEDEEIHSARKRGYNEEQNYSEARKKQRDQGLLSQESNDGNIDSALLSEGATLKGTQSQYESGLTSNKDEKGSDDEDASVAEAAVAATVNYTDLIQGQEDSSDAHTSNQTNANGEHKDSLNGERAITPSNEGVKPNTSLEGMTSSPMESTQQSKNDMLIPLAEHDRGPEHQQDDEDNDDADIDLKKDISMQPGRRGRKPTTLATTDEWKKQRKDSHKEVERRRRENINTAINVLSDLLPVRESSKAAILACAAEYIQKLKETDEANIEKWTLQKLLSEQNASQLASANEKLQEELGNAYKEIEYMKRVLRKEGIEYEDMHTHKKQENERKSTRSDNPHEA
Notes: whole 60-bp probe, lowest competitor level
For `CAGTTGCTGACGAGTCACGTTGATGAGCAAGAATACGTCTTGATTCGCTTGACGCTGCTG`, the fluorescence intensity was 663 a.u.
For `TCTCCACCTCTACGACCCGTGCGGAAGGTGGAAACCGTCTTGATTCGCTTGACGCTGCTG`, the fluorescence intensity was 66.5 a.u.
With `CTTTCCCGATCTTGAGTGGTGGGTGTAGCACATTTGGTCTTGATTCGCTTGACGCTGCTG` the fluorescence intensity was 66.3 a.u.
For `TCATGTTCCTGACAGGGCGTGATGGACTTTACTATTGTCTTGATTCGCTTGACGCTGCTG`, the fluorescence intensity was 102 a.u.
`TCATAGTAGGTTTGTCATGCGCGTTGGAAAAAGAAAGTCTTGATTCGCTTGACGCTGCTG` has a fluorescence intensity of 103 a.u.
`AAATGAAGCCTCCTCCACGTTTATTGCCTTATTTAAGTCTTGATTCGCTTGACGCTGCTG` has a fluorescence intensity of 73.4 a.u.
For `AAAGCGGTAATTTGAGCTGTGGGTGCAGATATCTATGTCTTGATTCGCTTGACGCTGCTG`, the fluorescence intensity was 85.2 a.u.

Study 2 — method: aptamer microarray, sandwich; molecule type: DNA with 2'F-ANA; medium: in vitro; concentration: 200 nM; added: Cy3 exosite-II aptamer, 400 nM; reading: higher = stronger binding; oligonucleotide: GGTTGGTGTGGTTGG
Target: Prothrombin, mature alpha-thrombin (F2, Homo sapiens, UniProt P00734)
Notes: whole 15-mer aptamer, many near background
`2'F-ANA at 1 3 5 6 8 13 14 15` — result for “mean fluorescence intensity”: 49.4 a.u.
For `2'F-ANA at 6 7 8 11 12`, “mean fluorescence intensity” read 718 a.u.
For `2'F-ANA at 1 2 4 7 8 12 13 14 15`, “mean fluorescence intensity” read 84.7 a.u.
`2'F-ANA at 1 3 4 7 8 9 10 11 14 15`: “mean fluorescence intensity” 52.8 a.u.
`2'F-ANA at 3 5 7 8 9 10 11 12 13 14 15`: “mean fluorescence intensity” 55.4 a.u.

Study 3 — method: protein binding microarray; molecule type: double-stranded DNA, one strand shown; medium: in vitro; concentration: not given; baseline: not given; reading: higher = stronger binding
Target: Histone acetyltransferase KAT6A, both winged helices, GST fusion (KAT6A, Homo sapiens, UniProt Q92794, residues 1-181)
Notes: 8-mer, flanks averaged, mean of 2 arrays, mostly near background
Construct (chain): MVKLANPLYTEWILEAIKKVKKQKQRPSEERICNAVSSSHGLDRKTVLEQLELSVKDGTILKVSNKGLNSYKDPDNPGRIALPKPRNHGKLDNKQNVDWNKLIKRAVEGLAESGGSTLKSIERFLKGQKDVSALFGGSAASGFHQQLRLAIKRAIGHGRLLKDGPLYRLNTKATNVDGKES
`AAAGGACT` gave an E-score of -0.176.
With `TTACGGAA` the E-score was 0.256.
The E-score of `TGGTGAAA` is reported as 0.0364.
`CAAACAAA` has an E-score of -0.238.
The E-score of `ACGTATGG` is reported as 0.00327.
The E-score of `GGATTTTA` is reported as -0.128.

Other studies, line by line
`PhoQ, residues 284 288 289 292 302 303 SSCLAV` gave a fold induction of 3.99 (PhoP, residues 12 14 15 18 19 LWHVM (Escherichia coli, UniProt P23836); Sort-seq, item: YFP reporter; E. coli; PhoQ-PhoP variant library, added: 10 µM Mg2+; baseline: high Mg2+ state, higher = stronger signaling).

A few entries again (study 3):
`CAAACAAA` has an E-score of -0.238.
